Assay results from different studies.
Numbered parts are unrelated; each lists some results of a single study. “And” joins repeats or separate records; there may be more than shown.
UniProt Q15746, sequence (whole entry, looked up): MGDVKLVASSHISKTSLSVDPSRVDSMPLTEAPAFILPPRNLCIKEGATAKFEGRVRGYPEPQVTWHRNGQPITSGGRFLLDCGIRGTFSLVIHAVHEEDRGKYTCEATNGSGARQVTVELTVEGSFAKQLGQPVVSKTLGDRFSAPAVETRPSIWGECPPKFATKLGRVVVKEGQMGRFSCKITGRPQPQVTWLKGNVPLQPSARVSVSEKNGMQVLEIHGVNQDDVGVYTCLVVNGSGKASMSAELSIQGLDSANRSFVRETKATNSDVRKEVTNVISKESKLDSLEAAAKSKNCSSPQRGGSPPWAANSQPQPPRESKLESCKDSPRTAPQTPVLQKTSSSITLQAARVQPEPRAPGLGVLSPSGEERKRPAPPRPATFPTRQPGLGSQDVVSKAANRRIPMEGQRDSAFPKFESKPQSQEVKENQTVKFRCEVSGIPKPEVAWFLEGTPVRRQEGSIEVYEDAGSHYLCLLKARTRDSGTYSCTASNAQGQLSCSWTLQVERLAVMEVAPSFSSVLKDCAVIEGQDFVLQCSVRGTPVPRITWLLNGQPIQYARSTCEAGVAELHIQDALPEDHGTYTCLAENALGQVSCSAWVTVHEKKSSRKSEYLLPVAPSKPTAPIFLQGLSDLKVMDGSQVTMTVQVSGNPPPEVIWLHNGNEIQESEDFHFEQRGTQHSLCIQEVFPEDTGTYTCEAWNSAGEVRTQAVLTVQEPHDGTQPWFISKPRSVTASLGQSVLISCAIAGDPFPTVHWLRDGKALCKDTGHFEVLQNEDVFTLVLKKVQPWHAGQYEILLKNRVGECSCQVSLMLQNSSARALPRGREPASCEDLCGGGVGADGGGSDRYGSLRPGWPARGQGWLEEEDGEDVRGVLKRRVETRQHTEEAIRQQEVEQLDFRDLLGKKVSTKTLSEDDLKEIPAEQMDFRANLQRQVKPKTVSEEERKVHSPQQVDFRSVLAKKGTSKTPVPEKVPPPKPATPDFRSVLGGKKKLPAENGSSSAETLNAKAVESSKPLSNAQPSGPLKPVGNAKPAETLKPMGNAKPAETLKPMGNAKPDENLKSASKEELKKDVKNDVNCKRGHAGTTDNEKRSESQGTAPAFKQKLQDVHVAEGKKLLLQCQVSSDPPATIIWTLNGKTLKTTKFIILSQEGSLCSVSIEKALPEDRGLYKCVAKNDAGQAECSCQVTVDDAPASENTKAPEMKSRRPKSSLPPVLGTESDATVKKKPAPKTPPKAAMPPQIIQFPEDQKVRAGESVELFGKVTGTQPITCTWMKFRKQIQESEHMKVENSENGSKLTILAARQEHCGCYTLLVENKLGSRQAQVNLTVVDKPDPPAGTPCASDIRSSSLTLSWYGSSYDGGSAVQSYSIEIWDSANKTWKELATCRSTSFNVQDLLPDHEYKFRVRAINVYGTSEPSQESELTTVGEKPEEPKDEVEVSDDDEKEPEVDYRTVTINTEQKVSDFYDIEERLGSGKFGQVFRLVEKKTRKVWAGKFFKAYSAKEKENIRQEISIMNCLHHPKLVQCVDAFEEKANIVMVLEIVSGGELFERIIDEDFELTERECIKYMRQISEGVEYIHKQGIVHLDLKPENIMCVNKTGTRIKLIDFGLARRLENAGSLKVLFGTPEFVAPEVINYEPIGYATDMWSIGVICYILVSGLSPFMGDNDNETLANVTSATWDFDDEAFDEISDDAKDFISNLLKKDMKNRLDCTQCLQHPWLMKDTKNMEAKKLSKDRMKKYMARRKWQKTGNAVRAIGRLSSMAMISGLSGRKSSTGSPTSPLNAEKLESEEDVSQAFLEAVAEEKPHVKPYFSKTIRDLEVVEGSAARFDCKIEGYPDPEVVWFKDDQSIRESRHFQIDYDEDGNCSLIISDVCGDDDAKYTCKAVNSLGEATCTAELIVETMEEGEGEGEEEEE

Study 1
Target: DNA polymerase theta, ATPase domain (POLQ, Homo sapiens, UniProt O75417)
UniProt O75417, sequence (whole entry, unmodified, looked up): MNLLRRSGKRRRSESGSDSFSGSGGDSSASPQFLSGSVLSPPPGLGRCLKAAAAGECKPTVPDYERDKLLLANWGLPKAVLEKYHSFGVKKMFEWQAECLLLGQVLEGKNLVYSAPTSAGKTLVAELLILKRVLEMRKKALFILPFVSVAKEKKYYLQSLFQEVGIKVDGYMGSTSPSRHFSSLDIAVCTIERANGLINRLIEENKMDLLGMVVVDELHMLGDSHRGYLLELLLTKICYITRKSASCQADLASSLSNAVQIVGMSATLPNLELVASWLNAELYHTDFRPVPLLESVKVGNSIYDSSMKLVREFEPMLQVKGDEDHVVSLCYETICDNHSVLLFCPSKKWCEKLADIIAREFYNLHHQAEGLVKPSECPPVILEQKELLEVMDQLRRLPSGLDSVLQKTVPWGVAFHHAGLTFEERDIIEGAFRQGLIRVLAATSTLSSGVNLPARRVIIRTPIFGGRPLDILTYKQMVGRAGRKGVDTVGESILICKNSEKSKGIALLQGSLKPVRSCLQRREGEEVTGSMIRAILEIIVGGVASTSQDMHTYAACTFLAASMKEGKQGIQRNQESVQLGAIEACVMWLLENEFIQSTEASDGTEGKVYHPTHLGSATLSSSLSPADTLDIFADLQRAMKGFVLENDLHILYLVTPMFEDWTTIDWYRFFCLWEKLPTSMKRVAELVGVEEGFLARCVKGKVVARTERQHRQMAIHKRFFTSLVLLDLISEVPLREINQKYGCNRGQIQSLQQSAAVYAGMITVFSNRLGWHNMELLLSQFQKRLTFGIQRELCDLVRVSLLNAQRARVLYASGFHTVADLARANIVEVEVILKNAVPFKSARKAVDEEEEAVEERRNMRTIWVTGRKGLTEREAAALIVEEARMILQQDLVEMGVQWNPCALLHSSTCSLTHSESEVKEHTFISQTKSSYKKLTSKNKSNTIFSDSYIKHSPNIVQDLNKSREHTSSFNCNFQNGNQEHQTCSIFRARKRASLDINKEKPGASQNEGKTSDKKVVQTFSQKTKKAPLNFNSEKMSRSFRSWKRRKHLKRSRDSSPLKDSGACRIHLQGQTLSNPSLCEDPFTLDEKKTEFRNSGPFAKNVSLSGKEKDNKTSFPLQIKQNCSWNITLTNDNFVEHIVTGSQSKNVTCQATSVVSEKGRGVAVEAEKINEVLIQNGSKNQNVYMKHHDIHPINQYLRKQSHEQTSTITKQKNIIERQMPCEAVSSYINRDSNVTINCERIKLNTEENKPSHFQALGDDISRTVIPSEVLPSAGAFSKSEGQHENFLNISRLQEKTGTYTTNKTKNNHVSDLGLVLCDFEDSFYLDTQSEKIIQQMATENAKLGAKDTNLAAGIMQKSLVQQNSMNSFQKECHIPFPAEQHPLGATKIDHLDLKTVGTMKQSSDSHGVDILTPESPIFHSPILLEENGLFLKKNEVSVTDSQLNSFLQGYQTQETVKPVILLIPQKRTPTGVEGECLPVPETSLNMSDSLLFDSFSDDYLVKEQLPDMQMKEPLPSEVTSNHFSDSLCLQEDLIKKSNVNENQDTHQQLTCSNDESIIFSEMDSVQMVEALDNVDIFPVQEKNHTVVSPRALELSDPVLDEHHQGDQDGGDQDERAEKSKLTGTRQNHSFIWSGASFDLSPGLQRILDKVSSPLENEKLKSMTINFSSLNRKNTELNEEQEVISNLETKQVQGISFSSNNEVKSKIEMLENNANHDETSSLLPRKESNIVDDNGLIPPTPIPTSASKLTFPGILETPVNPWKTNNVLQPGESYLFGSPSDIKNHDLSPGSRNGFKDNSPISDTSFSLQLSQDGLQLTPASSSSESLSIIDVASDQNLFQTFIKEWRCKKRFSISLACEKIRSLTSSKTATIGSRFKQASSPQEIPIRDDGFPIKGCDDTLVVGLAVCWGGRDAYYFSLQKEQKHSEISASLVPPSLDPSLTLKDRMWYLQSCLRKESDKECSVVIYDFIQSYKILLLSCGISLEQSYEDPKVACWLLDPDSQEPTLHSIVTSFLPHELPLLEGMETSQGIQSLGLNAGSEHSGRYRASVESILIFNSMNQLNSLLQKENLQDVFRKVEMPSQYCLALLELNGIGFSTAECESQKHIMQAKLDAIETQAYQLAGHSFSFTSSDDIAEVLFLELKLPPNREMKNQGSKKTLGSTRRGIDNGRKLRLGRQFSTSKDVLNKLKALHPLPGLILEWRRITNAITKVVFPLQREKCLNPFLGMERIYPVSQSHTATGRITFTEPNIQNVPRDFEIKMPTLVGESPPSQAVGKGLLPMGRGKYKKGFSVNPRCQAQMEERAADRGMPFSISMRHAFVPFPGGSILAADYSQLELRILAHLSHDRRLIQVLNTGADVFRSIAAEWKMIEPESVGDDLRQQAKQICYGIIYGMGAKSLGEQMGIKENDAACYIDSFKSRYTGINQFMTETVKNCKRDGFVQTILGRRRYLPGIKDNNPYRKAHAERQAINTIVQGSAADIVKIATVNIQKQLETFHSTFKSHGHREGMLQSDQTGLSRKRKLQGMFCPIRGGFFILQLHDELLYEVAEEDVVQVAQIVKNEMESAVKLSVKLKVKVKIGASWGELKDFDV
Effect on: enzyme activity
Action: inhibitor
Concentration: 77 µM
Reference: untreated
For `NC1CCN(O)C1=O` (centres unmarked), the remaining activity was 94.1%.
For `CO[C@@H]1[C@@H](O[C@@H]2O[C@H](C)[C@@H](O[C@H]3C[C@@](C)(O)[C@@H](OC(=O)CC(C)C)[C@H](C)O3)[C@H](N(C)C)[C@H]2O)[C@@H](CC=O)C[C@@H](C)[C@@H](O)/C=C/C=C/C[C@@H](C)OC(=O)C[C@H]1OC(C)=O`, the remaining activity was 91.6%.
`CCN(CC)CCNC(=O)c1cc(Br)c(N)cc1OC` has a remaining activity of 99.7%.
With `Cc1cn([C@H]2O[C@@H](CO)[C@H](O)[C@H]2F)c(=O)[nH]c1=O` the remaining activity was 103%.
`CCCC(=O)OCOC(=O)C1=C(C)NC(C)=C(C(=O)OC)C1c1cccc(Cl)c1Cl` (centres unmarked) gave a remaining activity of 102%.
The remaining activity of `O=c1[nH]c(=O)n([C@H]2C[C@H](O)[C@@H](CO)O2)cc1Br` is reported as 99.6%.
The remaining activity of `CC1(C)O[C@@H]2C[C@H]3[C@@H]4CCC5=CC(=O)C=C[C@]5(C)[C@@]4(F)[C@@H](O)C[C@]3(C)[C@]2(C(=O)CO)O1` is reported as 91.3%.
With `Cc1cc(F)c(Nc2ncnc3cc(OCc4ccccc4)ccc23)cc1O` the remaining activity was 98.4%.
With `COc1ccccc1S(=O)(=O)Nc1ccc2c(c1)CN(C)C(=O)N2` the remaining activity was 99.2%.
`O=S(=O)(O)Oc1ccc(C(c2ccc(OS(=O)(=O)O)cc2)c2ccccn2)cc1` has a remaining activity of 92.8%.
For `Nc1nc(Cl)nc2c1ncn2[C@@H]1O[C@H](CO)[C@@H](O)[C@@H]1F`, the remaining activity was 94.5%.
`O=C1NCCc2[nH]c(-c3ccncc3)cc21` gave a remaining activity of 84.8%.
`N[C@H](C(=O)O)[C@H](Cc1ccccc1)C(=O)O` has a remaining activity of 96.4%.
`CNC(=O)Nc1ccc(-c2nc(N3CC4CCC(C3)O4)c3cnn(C4CCC5(CC4)OCCO5)c3n2)cc1` gave a remaining activity of 98.2%.
`COc1ccc(CCN(C)CCc2ccc(OC)c(OC)c2)cc1OC` has a remaining activity of 105%.
For `C[C@@H](O[C@H]1OCCN(Cc2nn(P(=O)(O)O)c(=O)[nH]2)[C@H]1c1ccc(F)cc1)c1cc(C(F)(F)F)cc(C(F)(F)F)c1`, the remaining activity was 102%.
For `COc1ccc(Cc2nccc3cc(OC)c(OC)cc23)cc1OC`, the remaining activity was 97.9% and 102%.

Study 2
Target: Eukaryotic initiation factor 4A-I (EIF4A1, Homo sapiens, UniProt P60842)
UniProt P60842, sequence (whole entry, looked up): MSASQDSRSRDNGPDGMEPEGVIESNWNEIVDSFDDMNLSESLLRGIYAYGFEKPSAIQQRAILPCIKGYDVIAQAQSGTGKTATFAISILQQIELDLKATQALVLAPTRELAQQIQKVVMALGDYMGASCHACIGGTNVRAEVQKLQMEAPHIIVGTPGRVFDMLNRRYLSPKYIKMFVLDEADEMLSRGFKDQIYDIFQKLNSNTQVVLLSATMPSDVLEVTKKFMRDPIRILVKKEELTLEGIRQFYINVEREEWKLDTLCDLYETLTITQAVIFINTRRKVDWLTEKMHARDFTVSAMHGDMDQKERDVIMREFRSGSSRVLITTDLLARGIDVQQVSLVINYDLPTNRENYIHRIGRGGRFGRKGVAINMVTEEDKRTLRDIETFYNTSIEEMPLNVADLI
Effect on: RNA clamping
Method: fluorescence polarization
Concentration: concentration not given
With: FAM-labelled poly r(AG)8 RNA
Reading: higher = more clamping
Under “fluorescence polarization change”, `COc1ccc([C@@]23Oc4cc(OC)cc(OC)c4[C@]2(O)[C@H](O)[C@H](C(=O)c2ccco2)[C@H]3c2ccccc2)cc1` is recorded as 46.3 mP and 34 mP.
Under “fluorescence polarization change”, `COC(=O)[C@@H]1[C@@H](c2ccccc2)[C@]2(c3ccc(OC)cc3)Oc3cc(OC)cc(OC)c3[C@@]23NC(C2CCN(C(=O)OC(C)(C)C)CC2)=N[C@@]13O` is recorded as 41.2 mP.
`COC(=O)[C@@H]1[C@@H](c2ccccc2)[C@]2(c3ccc(OC)cc3)Oc3cc(OC)cc(OC)c3[C@@]23N2CCCCC2=N[C@@]13O`: “fluorescence polarization change” 82.4 mP.
For `COC(=O)[C@@H]1[C@@H](c2ccccc2)[C@]2(c3ccc(OC)cc3)Oc3cc(OC)cc(OC)c3[C@@]23OC(c2cccnc2)=N[C@@]13O`, “fluorescence polarization change” read -0.1 mP.
`COc1ccc([C@@]23Oc4cc(OC)cc(OC)c4[C@]2(O)[C@@H]2OC(=O)[C@@H]2[C@H]3c2ccccc2)cc1`: “fluorescence polarization change” 43.3 mP.
`CO/N=C(\c1ccco1)[C@H]1[C@@H](O)[C@@]2(O)c3c(OC)cc(OC)cc3O[C@@]2(c2ccc(OC)cc2)[C@@H]1c1ccccc1` — result for “fluorescence polarization change”: 3.1 mP.
Under “fluorescence polarization change”, `COc1ccc([C@]23Oc4cc(OC)cc(OC)c4[C@@]2(O)c2nc(-c4cccc(OC)c4)[nH]c(=O)c2[C@@H]3c2ccccc2)cc1` is recorded as 11.6 mP.
`COc1ccc([C@@]23Oc4cc(OC)cc(OC)c4[C@]2(O)[C@H](O)[C@H](C(=O)NCCCC(OC)OC)[C@H]3c2ccccc2)cc1`: “fluorescence polarization change” 67.9 mP.
For `CCCC1=N[C@@]2(O)[C@H](C(=O)OC)[C@@H](c3ccccc3)[C@]3(c4ccc(OC)cc4)Oc4cc(OC)cc(OC)c4[C@]23N1`, “fluorescence polarization change” read 63.4 mP.
`COc1ccc([C@@]23Oc4cc(OC)cc(OC)c4[C@]2(O)[C@H](O)[C@H](C(=O)c2nccn2C)[C@H]3c2ccccc2)cc1` — result for “fluorescence polarization change”: 28.1 mP.
`COc1ccc([C@]23Oc4cc(OC)cc(OC)c4[C@@]2(O)c2nc(-c4ccc(C)cc4)[nH]c(=O)c2[C@@H]3c2ccccc2)cc1` — result for “fluorescence polarization change”: 29.5 mP.
For `COC(=O)C1=C(OS(=O)(=O)c2ccc(C)cc2)[C@@]2(O)c3c(OC)cc(OC)cc3O[C@@]2(c2ccc(OC)cc2)[C@@H]1c1ccccc1`, “fluorescence polarization change” read 15.4 mP.
For `COc1ccc([C@]23Oc4cc(OC)cc(OC)c4[C@](O)([C@H](C(=O)NCCCC(OC)OC)[C@H]2c2ccccc2)[C@@H]3O)cc1`, “fluorescence polarization change” read 1.3 mP.
Under “fluorescence polarization change”, `C#CCCC(=O)O[C@@H]1[C@H](C(=O)c2ccco2)[C@@H](c2ccccc2)[C@]2(c3ccc(OC)cc3)Oc3cc(OC)cc(OC)c3[C@]12O` is recorded as 2.8 mP.
`O=C1O[C@H]2[C@@H]1[C@H](c1ccccc1)[C@@]1(c3ccccc3)Oc3ccccc3[C@@]21O`: “fluorescence polarization change” 10.7 mP.
`COc1ccc([C@@]23Oc4cc(OC)cc(OC)c4[C@]2(O)c2nc(-c4ccccc4)n(CC(CC(=O)O)OC)c(=O)c2[C@H]3c2ccccc2)cc1` (some centres unmarked): “fluorescence polarization change” 0.8 mP.

Study 3
SMILES: O=C(O)[C@H]1[C@H](Cn2nnc3ccccc3c2=O)CC[C@@H]1C(=O)c1ccc(OCCC2CCOCC2)cc1
Method: competition with immobilised ligand
Concentration: 1 µM
It gave 100% for remaining binding (PAK6 (Homo sapiens, UniProt Q9NQU5); cell-free assay).
It gave 84% for remaining binding (RIPK1 (Homo sapiens, UniProt Q13546); cell-free assay).
For PIK3C2B (Homo sapiens, UniProt O00750); cell-free assay: remaining binding read 90%.
For CAMK2D (Homo sapiens, UniProt Q13557); cell-free assay: remaining binding read 86%.
It gave 100% for remaining binding (BRAF (Homo sapiens, UniProt P15056, V600E); cell-free assay).
Tyrosine-protein kinase JAK1, JH2 (JAK1, Homo sapiens, UniProt P23458); cell-free assay — remaining binding: 100%.
The remaining binding was 100% (EPHA7 (Homo sapiens, UniProt Q15375); cell-free assay).
Tyrosine-protein kinase ABL1, non-phosphorylated (ABL1, Homo sapiens, UniProt P00519, F317L); cell-free assay — remaining binding: 75%.
MAP2K6 (Homo sapiens, UniProt P52564); cell-free assay — remaining binding: 100%.
The remaining binding was 75% (PRKG1 (Homo sapiens, UniProt Q13976); cell-free assay).
For PIK3CD (Homo sapiens, UniProt O00329); cell-free assay: remaining binding read 89%.
For EGFR (Homo sapiens, UniProt P00533, del747-752/P753S); cell-free assay: remaining binding read 76%.
For FGFR4 (Homo sapiens, UniProt P22455); cell-free assay: remaining binding read 100%.
The remaining binding was 80% (PIK3CB (Homo sapiens, UniProt P42338); cell-free assay).
It gave 74% for remaining binding (MYLK (Homo sapiens, UniProt Q15746); cell-free assay).
It gave 90% for remaining binding (EPHA4 (Homo sapiens, UniProt P54764); cell-free assay).
It gave 100% for remaining binding (BRSK2 (Homo sapiens, UniProt Q8IWQ3); cell-free assay).
The remaining binding was 69% (ERBB3 (Homo sapiens, UniProt P21860); cell-free assay).
The remaining binding was 100% (PRKCE (Homo sapiens, UniProt Q02156); cell-free assay).
PI4KB (Homo sapiens, UniProt Q9UBF8); cell-free assay — remaining binding: 93%.
TSSK3 (Homo sapiens, UniProt Q96PN8); cell-free assay — remaining binding: 85%.
The remaining binding was 100% (NLK (Homo sapiens, UniProt Q9UBE8); cell-free assay).
Myosin-IIIa (MYO3A, Homo sapiens, UniProt Q8NEV4); binding — remaining binding: 100%.
SGK3 (Homo sapiens, UniProt Q96BR1); cell-free assay — remaining binding: 100%.
TESK1 (Homo sapiens, UniProt Q15569); cell-free assay — remaining binding: 100%.

Study 4
Structure (SMILES): CN([C@@H](Cc1ccc(OS(=O)(=O)c2cccc3cnccc23)cc1)C(=O)N1CCN(c2ccccc2)CC1)S(=O)(=O)c1cccc2cnccc12
Effect on: enzyme activity
Action: inhibitor
Concentration: 0.5 µM
Reference: control
EPHB2 (Homo sapiens, UniProt P29323) — remaining activity: 103%.
It gave 99.1% for remaining activity (PAK2 (Homo sapiens, UniProt Q13177)).
The remaining activity was 110% (FGFR4 (Homo sapiens, UniProt P22455)).
The remaining activity was 95.1% (CSF1R (Homo sapiens, UniProt P07333)).
The remaining activity was 97.5% (GRK2 (Homo sapiens, UniProt P25098)).
It gave 98.2% for remaining activity (MYLK (Homo sapiens, UniProt Q15746)).
FLT3 (Homo sapiens, UniProt P36888) — remaining activity: 103%.
PIM2 (Homo sapiens, UniProt Q9P1W9) — remaining activity: 98.5%.
For SGK1 (Homo sapiens, UniProt O00141): remaining activity read 105%.
It gave 99.8% for remaining activity (GSK3A (Homo sapiens, UniProt P49840)).
For GRK6 (Homo sapiens, UniProt P43250): remaining activity read 102%.
For CSK (Homo sapiens, UniProt P41240): remaining activity read 96.2%.
It gave 109% for remaining activity (RPS6KA1 (Homo sapiens, UniProt Q15418)).
RPS6KB1 (Homo sapiens, UniProt P23443) — remaining activity: 100%.
For EPHA7 (Homo sapiens, UniProt Q15375): remaining activity read 102%.
For SRPK3 (Homo sapiens, UniProt Q9UPE1): remaining activity read 98%.
For PRKCG (Homo sapiens, UniProt P05129): remaining activity read 95.4%.
It gave 97.5% for remaining activity (NUAK1 (Homo sapiens, UniProt O60285)).
It gave 97.4% for remaining activity (BMX (Homo sapiens, UniProt P51813)).

Some of these lines once more (study 4):
The remaining activity was 97.5% (GRK2 (Homo sapiens, UniProt P25098)).
It gave 98.2% for remaining activity (MYLK (Homo sapiens, UniProt Q15746)).
FLT3 (Homo sapiens, UniProt P36888) — remaining activity: 103%.
PIM2 (Homo sapiens, UniProt Q9P1W9) — remaining activity: 98.5%.
For SGK1 (Homo sapiens, UniProt O00141): remaining activity read 105%.
It gave 99.8% for remaining activity (GSK3A (Homo sapiens, UniProt P49840)).
For GRK6 (Homo sapiens, UniProt P43250): remaining activity read 102%.
For CSK (Homo sapiens, UniProt P41240): remaining activity read 96.2%.
It gave 109% for remaining activity (RPS6KA1 (Homo sapiens, UniProt Q15418)).
RPS6KB1 (Homo sapiens, UniProt P23443) — remaining activity: 100%.
